{"data": "Published values from different studies", "note": "± marks the error that the study gave."}
{"Compound": "N=C(N)NCCC[C@@H]1NC(=O)[C@H](CCCCNC(=O)CCOCCOCCOCCOCCNC(=O)CC[C@H](NC(=O)CCOCCOCCOCCOCCNC(=O)CC[C@H](NC(=O)CN2CCN(CC(=O)O)CCN(CC(=O)O)CCN(CC(=O)O)CC2)C(=O)NCCOCCOCCOCCOCCC(=O)N[C@@H](CCC(=O)NCCOCCOCCOCCOCCC(=O)NCCCC[C@@H]2NC(=O)[C@@H](Cc3ccccc3)NC(=O)[C@H](CC(=O)O)NC(=O)CNC(=O)[C@H](CCCNC(=N)N)NC2=O)C(=O)NCCOCCOCCOCCOCCC(=O)NCCCC[C@@H]2NC(=O)[C@@H](Cc3ccccc3)NC(=O)[C@H](CC(=O)O)NC(=O)CNC(=O)[C@H](CCCNC(=N)N)NC2=O)C(=O)NCCOCCOCCOCCOCCC(=O)NCCCC[C@@H]2NC(=O)[C@@H](Cc3ccccc3)NC(=O)[C@H](CC(=O)O)NC(=O)CNC(=O)[C@H](CCCNC(=N)N)NC2=O)NC(=O)[C@@H](Cc2ccccc2)NC(=O)[C@H](CC(=O)O)NC(=O)CNC1=O [indium-111 labelled]", "system": "female athymic nude mouse, U-87 MG tumour", "conditions": "intravenous, 3 µCi, 1 h, U-87 MG glioma xenograft", "endpoint": "tumour uptake", "value": "11.1 %ID/g"}
{"Compound": "CC(C)C[C@H](NC(=O)C[C@H](O)[C@H](CC(C)C)NC(=O)[C@H](Cc1c[nH]cn1)NC(=O)CNC(=O)[C@@H](NC(=O)[C@H](C)NC(=O)[C@H](Cc1c[nH]c2ccccc12)NC(=O)[C@H](CCC(N)=O)NC(=O)[C@@H](Cc1ccccc1)NC(=O)c1ccc(NC(=O)CNC(=O)CCC(C(=O)O)N2CCN(CC(=O)O)CCN(CC(=O)O)CC2)cc1)C(C)C)C(N)=O (stereo partly drawn) [fluorine-18 labelled]", "test": "PET imaging", "system": "mouse, PC-3 xenograft", "conditions": "intravenous, 2 h, 18F-labelled", "endpoint": "tumour uptake", "value": "3.9 ± 0.48 %ID/g"}
{"Compound": "N=C(N)NCCC[C@@H]1NC(=O)[C@H](CCCCNC(=O)CNC(=O)CNC(=O)CNC(=O)c2ccc(NN=Cc3ccccc3S(=O)(=O)O)nc2)NC(=O)[C@@H](Cc2ccccc2)NC(=O)[C@H](CC(=O)O)NC(=O)CNC1=O [technetium-99m labelled]", "system": "athymic nu/nu mouse, female, U-87 MG glioma xenograft", "conditions": "intravenous, 120 min", "how to read": "relative to: tumour over blood", "endpoint": "tumour to tissue ratio", "value": "13.1 ± 3.84"}
{"Compound": "CC(C)C[C@H](NC(=O)[C@@H]1CCCN1C(=O)[C@H](CCCCN)NC(=O)[C@@H](N)CO)C(=O)N1CCC[C@H]1C(=O)N[C@@H](CCC(=O)O)C(=O)N[C@H](C(=O)N[C@H](C(=O)N[C@@H](CC(=O)O)C(=O)N[C@@H](CCC(=O)O)C(=O)N[C@@H](Cc1ccc(O)cc1)C(=O)N[C@@H](Cc1cn(CCOCCOCCOCCNC(=O)CCc2ccc(O)c(CN(CCN(CC(=O)O)Cc3cc(CCC(=O)NCCCC[C@H](NC(=O)N[C@@H](CCC(=O)O)C(=O)O)C(=O)O)ccc3O)CC(=O)O)c2)nn1)C(=O)O)[C@@H](C)O)C(C)C [gallium-68 labelled]", "test": "PET", "system": "NMRI nu/nu mouse, LNCaP xenograft", "conditions": "60 to 120 min, together with: unlabelled PSMA PLT-TM 86 nmol/animal", "endpoint": "tumour SUVmax", "value": "0.06 g/mL"}
{"Compound": "N=C(N)NCCC[C@@H]1NC(=O)[C@H](CCCCNC(=O)c2ccc(CNC34CNCCNCC(NCc5ccc(C(=O)NCCCC[C@@H]6NC(=O)[C@@H](Cc7ccc(O)cc7)NC(=O)[C@H](CC(=O)O)NC(=O)CNC(=O)[C@H](CCCNC(=N)N)NC6=O)cc5)(CNCCNC3)CNCCNC4)cc2)NC(=O)[C@@H](Cc2ccc(O)cc2)NC(=O)[C@H](CC(=O)O)NC(=O)CNC1=O [copper-64 labelled]", "test": "microPET", "system": "female athymic nude mouse, U-87 MG xenograft, U-87 MG tumour", "conditions": "intravenous, 20 h", "endpoint": "tumour uptake", "value": "5.54 ± 1.27 %ID/g"}
{"Compound": "N=C(N)NCCC[C@@H]1NC(=O)[C@H](CCCCNC(=O)CC[C@H](NC(=O)CCOCCOCCOCCOCCNC(=O)CN2CCN(CC(=O)O)CCN(CC(=O)O)CCN(CC(=O)O)CC2)C(=O)NCCCC[C@@H]2NC(=O)[C@@H](Cc3ccccc3)NC(=O)[C@H](CC(=O)O)NC(=O)CNC(=O)[C@H](CCCNC(=N)N)NC2=O)NC(=O)[C@@H](Cc2ccccc2)NC(=O)[C@H](CC(=O)O)NC(=O)CNC1=O [indium-111 labelled]", "system": "female athymic nude mouse, U-87 MG tumour", "conditions": "intravenous, 3 µCi, 24 h, U-87 MG glioma xenograft", "endpoint": "tumour uptake", "value": "3.1 %ID/g"}
{"Compound": "C[C@@H]1NC(=O)[C@H](CCC(=O)O)NC(=O)CNC(=O)[C@H](CC(=O)O)NC(=O)CNC(=O)[C@H](CCCCNC(=O)CCCCCNC(=O)[C@H](CS)NC(=O)CCCCCNC(=O)CN2CCN(CC(=O)O)CCN(CC(=O)O)CCN(CC(=O)O)CC2)NC(=O)[C@@H](Cc2ccc(O)cc2)NC1=O [gallium-68 labelled]", "system": "mouse, orthotopic A549", "conditions": "10 min", "endpoint": "tumour to lung ratio", "value": 1.52}
{"Compound": "N=C(N)NCCC[C@@H]1NC(=O)[C@H](CCCCNC(=O)CC[C@H](NC(=O)CCOCCOCCOCCOCCNC(=O)CC[C@H](NC(=O)CN2CCN(CC(=O)O)CCN(CC(=O)O)CCN(CC(=O)O)CC2)C(=O)NCCOCCOCCOCCOCCC(=O)N[C@@H](CCC(=O)NCCCC[C@@H]2NC(=O)[C@@H](Cc3ccccc3)NC(=O)[C@H](CC(=O)O)NC(=O)CNC(=O)[C@H](CCCNC(=N)N)NC2=O)C(=O)NCCCC[C@@H]2NC(=O)[C@@H](Cc3ccccc3)NC(=O)[C@H](CC(=O)O)NC(=O)CNC(=O)[C@H](CCCNC(=N)N)NC2=O)C(=O)NCCCC[C@@H]2NC(=O)[C@@H](Cc3ccccc3)NC(=O)[C@H](CC(=O)O)NC(=O)CNC(=O)[C@H](CCCNC(=N)N)NC2=O)NC(=O)[C@@H](Cc2ccccc2)NC(=O)[C@H](CC(=O)O)NC(=O)CNC1=O [indium-111 labelled]", "system": "female athymic nude mouse", "conditions": "intravenous, 3 µCi, 24 h, U-87 MG glioma xenograft", "how to read": "relative to: tumour over muscle", "endpoint": "tumour to muscle ratio", "value": "16.8 ± 9.92"}
{"Compound": "N=C(N)NCCC[C@@H]1NC(=O)[C@H](CCCCNC(=O)CNC(=O)CNC(=O)CNC(=O)CC[C@H](NC(=O)c2ccc(NN=Cc3ccccc3S(=O)(=O)O)nc2)C(=O)NCC(=O)NCC(=O)NCC(=O)NCCCC[C@@H]2NC(=O)[C@@H](Cc3ccccc3)NC(=O)[C@H](CC(=O)O)NC(=O)CNC(=O)[C@H](CCCNC(=N)N)NC2=O)NC(=O)[C@@H](Cc2ccccc2)NC(=O)[C@H](CC(=O)O)NC(=O)CNC1=O [technetium-99m labelled]", "system": "athymic nu/nu mouse, female, U-87 MG glioma xenograft", "conditions": "intravenous, 30 min", "how to read": "relative to: tumour over liver", "endpoint": "tumour to tissue ratio", "value": "2.85 ± 0.29"}
{"note": "Excerpt of the above:"}
{"Compound": "N=C(N)NCCC[C@@H]1NC(=O)[C@H](CCCCNC(=O)CC[C@H](NC(=O)CCOCCOCCOCCOCCNC(=O)CC[C@H](NC(=O)CN2CCN(CC(=O)O)CCN(CC(=O)O)CCN(CC(=O)O)CC2)C(=O)NCCOCCOCCOCCOCCC(=O)N[C@@H](CCC(=O)NCCCC[C@@H]2NC(=O)[C@@H](Cc3ccccc3)NC(=O)[C@H](CC(=O)O)NC(=O)CNC(=O)[C@H](CCCNC(=N)N)NC2=O)C(=O)NCCCC[C@@H]2NC(=O)[C@@H](Cc3ccccc3)NC(=O)[C@H](CC(=O)O)NC(=O)CNC(=O)[C@H](CCCNC(=N)N)NC2=O)C(=O)NCCCC[C@@H]2NC(=O)[C@@H](Cc3ccccc3)NC(=O)[C@H](CC(=O)O)NC(=O)CNC(=O)[C@H](CCCNC(=N)N)NC2=O)NC(=O)[C@@H](Cc2ccccc2)NC(=O)[C@H](CC(=O)O)NC(=O)CNC1=O [indium-111 labelled]", "system": "female athymic nude mouse", "conditions": "intravenous, 3 µCi, 24 h, U-87 MG glioma xenograft", "how to read": "relative to: tumour over muscle", "endpoint": "tumour to muscle ratio", "value": "16.8 ± 9.92"}
